Published values collected from several papers.
Every numbered part comes from another study and shows a few of its results, in no order. Several values in a cell are separate wells, animals, samples, runs or records. Converted amounts (≈) assume the structure as drawn.

Series 1
Structure (SMILES): CCCCC[C@@H]1CC(=O)N[C@@H](C(C)C)C(=O)N[C@H](CCCNC(=N)N)C(=O)N[C@@H](C(C)C)C(=O)NCC(=O)N2CCC[C@H]2C(=O)N[C@@H](CC(C)C)C(=O)N[C@H](CCCNC(=N)N)C(=O)N[C@@H](CCC(=O)O)C(=O)N[C@H](Cc2ccc(O)cc2)C(=O)N[C@H](Cc2c[nH]c3ccccc23)C(=O)NCCCC(=O)O1
Organism: Staphylococcus aureus
Strain: USA300
Endpoint: MIC
added: menaquinone 2 µg/mL: 8 µg/mL (≈ 5.39 µM)
added: menaquinone 4 µg/mL: 16 µg/mL (≈ 10.8 µM)
added: menaquinone 0 µg/mL: 1 µg/mL (≈ 0.674 µM)
added: ubiquinone 16 µg/mL: 1 µg/mL (≈ 0.674 µM)
added: menaquinone 0.0625 µg/mL: 1 µg/mL (≈ 0.674 µM)

Series 2
SMILES: C=CCN1C(=O)C(O)(C(=O)O)Oc2cc(F)ccc21 (stereo not drawn)
Organism: Arabidopsis thaliana
Strain: Col-0
Endpoint: hypocotyl length
6.25 µg/mL, seed germination, single repetition: 2.08 cm and 2.03 cm and 2.11 cm and 2.02 cm
25 µg/mL, seed germination, single repetition: 1.72 cm and 1.73 cm and 1.66 cm and 1.79 cm and 1.7 cm
6.25 µg/mL, seed germination, repetition mean: 2.05 cm
3.125 µg/mL, seed germination, single repetition: 2.09 cm and 2.08 cm and 2.1 cm
12.5 µg/mL, seed germination, repetition mean: 1.82 cm
100 µg/mL, seed germination, repetition mean: 1.35 cm
50 µg/mL, seed germination, single repetition: 1.57 cm and 1.54 cm and 1.52 cm and 1.58 cm and 1.59 cm
50 µg/mL, seed germination, repetition mean: 1.55 cm
3.125 µg/mL, seed germination, repetition mean: 2.08 cm

Series 3
SMILES: Cn1cc(-c2cccc(CN3CCC4(CC3)COc3c4ccc4c3CN([C@H]3CCC(=O)NC3=O)C4=O)c2)cn1
Endpoint: MRT(0-inf)
cynomolgus monkey, plasma; oral, 3.02 mg/kg: 13.6 h
cynomolgus monkey; intravenous, 1 mg/kg: 9.15 h and 6.68 h and 7.19 h
cynomolgus monkey; oral, 3 mg/kg: 14.9 h and 14.1 h and 12 h
rat, plasma; intravenous, 1.02 mg/kg: 2.41 h
rat; oral, 3 mg/kg: 4.07 h and 5.49 h and 5.15 h
cynomolgus monkey, plasma; intravenous, 1 mg/kg: 7.67 h
rat; intravenous, 1 mg/kg: 2.4 h and 2.43 h and 2.41 h
rat, plasma; oral, 2.98 mg/kg, group mean: 4.9 h

Series 4
Compound: Cc1c(NC(=O)c2cccn(-c3ccc(F)cc3)c2=O)ccc(Oc2ccnc(NC(=O)C3CC3)c2)c1C
Cell line: L929
Method: CCK-8
Endpoint: viability
50 µM: 71.4% and 71.9% and 70.7% and 71.7%
necroptosis protection; 5 µM, added: TNF-α-induced: 78.2%
necroptosis protection; 1.25 µM, added: TNF-α-induced: 73.2%
necroptosis protection; 0.156 µM, added: TNF-α-induced: 54.7%
50 µM, added: zVAD: 72.2% and 75.1% and 73.5% and 70.5% and 73.1%

For quick reference, copied from above (series 3):
cynomolgus monkey, plasma; oral, 3.02 mg/kg: 13.6 h
cynomolgus monkey; intravenous, 1 mg/kg: 9.15 h and 6.68 h and 7.19 h
cynomolgus monkey; oral, 3 mg/kg: 14.9 h and 14.1 h and 12 h
rat, plasma; intravenous, 1.02 mg/kg: 2.41 h
